Results gathered from unrelated publications.
A part holds a random share of what one study measured.
Chain of UniProt P35372 (whole entry, looked up): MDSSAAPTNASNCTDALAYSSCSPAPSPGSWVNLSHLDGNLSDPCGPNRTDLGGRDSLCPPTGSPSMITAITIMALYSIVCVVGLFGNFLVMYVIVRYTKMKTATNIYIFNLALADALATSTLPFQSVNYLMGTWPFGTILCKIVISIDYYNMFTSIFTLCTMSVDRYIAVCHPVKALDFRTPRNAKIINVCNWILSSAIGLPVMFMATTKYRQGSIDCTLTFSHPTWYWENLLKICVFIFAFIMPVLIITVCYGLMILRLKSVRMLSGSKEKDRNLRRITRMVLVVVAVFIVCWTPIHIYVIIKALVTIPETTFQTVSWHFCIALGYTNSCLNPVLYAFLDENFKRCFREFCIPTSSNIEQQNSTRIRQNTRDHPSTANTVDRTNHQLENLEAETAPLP
Chain of UniProt P41143 (whole entry, looked up): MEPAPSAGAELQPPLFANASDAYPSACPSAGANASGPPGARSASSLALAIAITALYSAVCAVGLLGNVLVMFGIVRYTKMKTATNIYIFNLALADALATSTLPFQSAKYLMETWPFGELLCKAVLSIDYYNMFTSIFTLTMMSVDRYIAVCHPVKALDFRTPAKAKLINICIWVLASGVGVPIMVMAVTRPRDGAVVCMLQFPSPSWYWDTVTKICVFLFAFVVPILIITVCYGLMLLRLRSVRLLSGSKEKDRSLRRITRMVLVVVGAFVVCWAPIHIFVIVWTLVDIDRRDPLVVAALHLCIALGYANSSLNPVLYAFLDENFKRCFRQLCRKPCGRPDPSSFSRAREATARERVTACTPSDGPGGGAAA
Chain of UniProt P41145 (whole entry, looked up): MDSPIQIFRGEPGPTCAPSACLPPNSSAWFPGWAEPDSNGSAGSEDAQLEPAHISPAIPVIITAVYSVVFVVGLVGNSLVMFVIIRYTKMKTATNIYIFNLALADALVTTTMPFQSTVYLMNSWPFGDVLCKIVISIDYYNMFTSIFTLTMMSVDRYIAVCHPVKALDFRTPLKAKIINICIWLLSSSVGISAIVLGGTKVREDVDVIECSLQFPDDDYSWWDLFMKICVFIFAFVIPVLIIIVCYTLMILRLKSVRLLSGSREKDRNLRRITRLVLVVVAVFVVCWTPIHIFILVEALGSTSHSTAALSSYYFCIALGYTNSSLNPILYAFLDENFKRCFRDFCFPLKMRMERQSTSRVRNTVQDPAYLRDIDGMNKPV
Chain of UniProt P11229 (whole entry, looked up): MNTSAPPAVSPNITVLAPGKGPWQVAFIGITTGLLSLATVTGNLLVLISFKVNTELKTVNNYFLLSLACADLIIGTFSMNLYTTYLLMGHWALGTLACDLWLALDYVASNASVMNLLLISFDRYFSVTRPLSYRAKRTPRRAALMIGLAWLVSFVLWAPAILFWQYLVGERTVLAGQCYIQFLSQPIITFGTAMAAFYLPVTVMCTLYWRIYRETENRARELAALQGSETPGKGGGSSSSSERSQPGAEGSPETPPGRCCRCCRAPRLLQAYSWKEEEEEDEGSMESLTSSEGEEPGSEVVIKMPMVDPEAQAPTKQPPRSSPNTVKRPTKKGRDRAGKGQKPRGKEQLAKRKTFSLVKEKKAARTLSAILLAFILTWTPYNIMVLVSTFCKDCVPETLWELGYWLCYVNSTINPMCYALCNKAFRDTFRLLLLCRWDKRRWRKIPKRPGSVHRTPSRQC
Chain of UniProt P20309 (whole entry, looked up): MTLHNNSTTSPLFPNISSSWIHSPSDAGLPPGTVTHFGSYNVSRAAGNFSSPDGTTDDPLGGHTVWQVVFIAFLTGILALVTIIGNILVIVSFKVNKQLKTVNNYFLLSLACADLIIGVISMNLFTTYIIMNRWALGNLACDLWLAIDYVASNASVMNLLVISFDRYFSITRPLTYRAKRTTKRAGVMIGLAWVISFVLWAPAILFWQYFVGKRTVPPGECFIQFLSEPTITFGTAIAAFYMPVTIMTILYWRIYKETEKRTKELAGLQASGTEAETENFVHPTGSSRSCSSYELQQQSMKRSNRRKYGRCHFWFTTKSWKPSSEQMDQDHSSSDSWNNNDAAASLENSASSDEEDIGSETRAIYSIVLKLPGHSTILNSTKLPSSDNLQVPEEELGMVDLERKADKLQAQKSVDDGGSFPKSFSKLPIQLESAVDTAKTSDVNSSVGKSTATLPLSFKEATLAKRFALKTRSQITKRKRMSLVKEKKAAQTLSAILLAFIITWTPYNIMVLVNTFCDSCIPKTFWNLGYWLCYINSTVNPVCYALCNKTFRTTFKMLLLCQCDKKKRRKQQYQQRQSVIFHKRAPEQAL
Chain of UniProt P28223 (whole entry, looked up): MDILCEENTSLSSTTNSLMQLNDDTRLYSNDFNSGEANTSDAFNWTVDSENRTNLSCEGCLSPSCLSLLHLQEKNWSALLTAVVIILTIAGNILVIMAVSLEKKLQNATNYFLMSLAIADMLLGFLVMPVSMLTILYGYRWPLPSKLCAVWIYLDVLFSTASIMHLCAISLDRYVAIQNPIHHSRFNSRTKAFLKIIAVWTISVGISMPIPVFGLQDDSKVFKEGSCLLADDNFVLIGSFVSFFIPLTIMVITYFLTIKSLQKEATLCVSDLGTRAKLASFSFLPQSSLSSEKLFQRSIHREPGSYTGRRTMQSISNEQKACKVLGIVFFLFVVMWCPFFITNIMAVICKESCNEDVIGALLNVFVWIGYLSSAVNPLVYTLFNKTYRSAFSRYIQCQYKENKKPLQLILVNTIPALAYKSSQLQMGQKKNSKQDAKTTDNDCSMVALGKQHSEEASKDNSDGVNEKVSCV
Chain of UniProt P21918 (whole entry, looked up): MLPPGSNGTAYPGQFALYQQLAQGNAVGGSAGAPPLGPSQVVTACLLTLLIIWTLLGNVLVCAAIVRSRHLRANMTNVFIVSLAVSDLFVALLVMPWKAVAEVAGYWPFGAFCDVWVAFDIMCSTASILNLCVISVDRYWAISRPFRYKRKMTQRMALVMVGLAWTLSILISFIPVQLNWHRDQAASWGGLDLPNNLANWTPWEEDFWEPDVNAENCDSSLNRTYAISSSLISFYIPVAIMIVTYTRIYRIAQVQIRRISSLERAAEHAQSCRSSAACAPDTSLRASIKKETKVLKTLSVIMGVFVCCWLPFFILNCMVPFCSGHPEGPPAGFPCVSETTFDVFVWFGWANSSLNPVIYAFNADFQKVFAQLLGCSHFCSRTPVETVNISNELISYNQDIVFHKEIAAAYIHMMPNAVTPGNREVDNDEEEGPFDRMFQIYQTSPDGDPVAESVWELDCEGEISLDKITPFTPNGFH

Set 1 — observed: cell-free assay; tested at: 10 µM
SMILES: NS(=O)(=O)c1cc(NC(=O)C2(c3ccccc3Cl)CC2)ccc1Oc1cccc(Cl)c1
Mu-type opioid receptor (OPRM1, Homo sapiens, UniProt P35372) — inhibition: 40.2%.
It gave 21.2% for inhibition (Kappa-type opioid receptor (OPRK1, Homo sapiens, UniProt P41145)).
It gave 20.8% for inhibition (D(1B) dopamine receptor (DRD5, Homo sapiens, UniProt P21918)).
For Muscarinic acetylcholine receptor M3 (CHRM3, Homo sapiens, UniProt P20309): inhibition read 17.9%.
The inhibition was -3.55% (Muscarinic acetylcholine receptor M1 (CHRM1, Homo sapiens, UniProt P11229)).
5-hydroxytryptamine receptor 2A (HTR2A, Homo sapiens, UniProt P28223) — inhibition: 11.3%.
Delta-type opioid receptor (OPRD1, Homo sapiens, UniProt P41143) — inhibition: 41.6%.

Set 2 — observed: enzyme activity; action: inhibitor; tested at: 10 µM
Target: Calcium/calmodulin-dependent protein kinase type II subunit alpha (CAMK2A, Homo sapiens, UniProt Q9UQM7)
Chain of UniProt Q9UQM7 (whole entry, looked up): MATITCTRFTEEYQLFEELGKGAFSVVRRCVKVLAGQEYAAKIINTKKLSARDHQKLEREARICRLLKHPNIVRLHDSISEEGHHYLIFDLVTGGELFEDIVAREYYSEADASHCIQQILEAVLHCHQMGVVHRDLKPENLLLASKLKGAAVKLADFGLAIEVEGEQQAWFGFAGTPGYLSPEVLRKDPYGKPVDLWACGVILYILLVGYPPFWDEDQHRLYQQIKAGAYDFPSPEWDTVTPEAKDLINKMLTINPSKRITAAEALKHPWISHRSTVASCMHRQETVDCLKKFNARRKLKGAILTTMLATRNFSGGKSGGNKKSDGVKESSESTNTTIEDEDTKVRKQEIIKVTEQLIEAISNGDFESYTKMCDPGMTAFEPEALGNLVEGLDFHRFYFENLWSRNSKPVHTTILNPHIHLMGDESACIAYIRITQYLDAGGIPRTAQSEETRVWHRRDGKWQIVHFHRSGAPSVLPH
CC(C)[C@@H]1NC(=O)[C@H](CCCCN)NC(=O)[C@@H](Cc2c[nH]c3ccccc23)NC(=O)[C@H](Cc2ccc(O)cc2)NC(=O)[C@@H](NC(=O)[C@H](N)Cc2ccc3ccccc3c2)CSSC[C@@H](C(=O)N[C@H](C(N)=O)[C@@H](C)O)NC1=O has an inhibition of -10%.
C=C[C@]12CN(C)[C@@H]3[C@H]4CO[C@H](C[C@H]41)[C@]1(C(=O)N(OC)c4ccccc41)[C@@H]32 has an inhibition of -7%.
The inhibition of COc1ccc(/C=C/c2cc(O)cc(O)c2)cc1 is reported as 19%.
For C=C1C/C(=C/C)C(=O)O[C@@H]2CCN3CC=C(COC(=O)[C@]1(C)O)[C@H]23, the inhibition was 2%.
With NC1CCSC1=O (racemic) the inhibition was -22%.
The inhibition of O=C(O)CCCc1ccc(N(CCCl)CCCl)cc1 is reported as 2%.
The inhibition of CCC1(C)CC(=O)NC(=O)C1 is reported as -2%.

Set 3 — cell line: mouse MPNST tumor cells; technique: high-content immunofluorescence imaging; item: nuclear SOX9; tested at: 10 µM; time: 12 h; setting: mean of 2 replicates; reference: DMSO control; reading: higher = more nuclear SOX9
For CC(C)[C@@]1(NC(=O)[C@@H]2C[C@@H]3c4cccc5[nH]cc(c45)C[C@H]3N(C)C2)O[C@@]2(O)[C@@H]3CCCN3C(=O)[C@H](Cc3ccccc3)N2C1=O, “nuclear SOX9 intensity” read 125 % of DMSO.
CCOC(=O)c1ccc(-c2ccc(OC(=O)N(C)Cc3cccc(-c4ccncc4)c3)cc2)cc1: “nuclear SOX9 intensity” 126 % of DMSO.
Nc1ccc(Oc2ccc(C(c3ccc(Oc4ccc(N)cc4)cc3)(C(F)(F)F)C(F)(F)F)cc2)cc1 — result for “nuclear SOX9 intensity”: 150 % of DMSO.
N#Cc1cn([C@@H]2O[C@H](CO)[C@@H](O)[C@H]2O)c2ncnc(N)c12: “nuclear SOX9 intensity” 59.1 % of DMSO.
O=C(N[C@H]1CN2CCC1CC2)c1cc2ccoc2cn1: “nuclear SOX9 intensity” 99.3 % of DMSO.
Under “nuclear SOX9 intensity”, CO[C@]12C[C@@H](COC(=O)c3cncc(Br)c3)CN(C)[C@@H]1Cc1cn(C)c3cccc2c13 is recorded as 130 % of DMSO.

Set 4 — cell line: HEK-293T; organism: VSV pseudotyped with VSV-G; tested at: 10 µM; time: 16 h
OCCOc1ccc(/C(=C(/CCCl)c2ccccc2)c2ccccc2)cc1 gave a pseudovirus infection of 98.6%.
For Clc1ccccc1CN1CCc2sccc2C1, the pseudovirus infection was 99.8%.
With O=C(O)c1cn(C2CC2)c2cc(N3CCNCC3)c(F)cc2c1=O the pseudovirus infection was 97.8%.
With CN(C)CCC=C1c2ccccc2COc2ccccc21 the pseudovirus infection was 89.3%.
Cn1cnc([N+](=O)[O-])c1Sc1ncnc2nc[nH]c12 gave a pseudovirus infection of 92.8%.
With CCN[C@H]1C[C@H](C)S(=O)(=O)c2sc(S(N)(=O)=O)cc21 the pseudovirus infection was 114%.
The pseudovirus infection of CC(=O)Nc1nnc(S(N)(=O)=O)s1 is reported as 91.3%.
CN1CCC[C@H]1c1cccnc1 has a pseudovirus infection of 110%.
The pseudovirus infection of O=C1CN(/N=C/c2ccc([N+](=O)[O-])o2)C(=O)N1 is reported as 112%.
For N[C@@H](CCC(=O)N[C@@H](CS)C(=O)NCC(=O)O)C(=O)O, the pseudovirus infection was 101%.
Clc1ccc(CO/N=C(\Cn2ccnc2)c2ccc(Cl)cc2Cl)c(Cl)c1 has a pseudovirus infection of 110%.
With CCN(CC)CCOC(=O)C1(C2CCCCC2)CCCCC1 the pseudovirus infection was 77%.
The pseudovirus infection of COC(=O)C1=C(C)NC(C)=C(C(=O)OC)C1c1ccccc1[N+](=O)[O-] is reported as 114%.
NCCCC(O)(P(=O)(O)O)P(=O)(O)O gave a pseudovirus infection of 137%.
For CNCCCC12CCC(c3ccccc31)c1ccccc12, the pseudovirus infection was 120%.
With CN(C)C(=O)C(CCN1CCC(O)(c2ccc(Cl)cc2)CC1)(c1ccccc1)c1ccccc1 the pseudovirus infection was 117%.
For CNC[C@H](O)c1ccc(O)c(O)c1, the pseudovirus infection was 88.8%.
For CC1=C(C(=O)O)N2C(=O)[C@@H](NC(=O)[C@H](N)c3ccccc3)[C@H]2SC1, the pseudovirus infection was 91.9%.
Oc1ccc(O)cc1 has a pseudovirus infection of 93.5%.
For COC(=O)[C@H](c1ccccc1Cl)N1CCc2sccc2C1, the pseudovirus infection was 97.5%.
